# Measured values pooled from the literature.
# T1: PSMG1/PSMG2 heterodimer (Homo sapiens); chain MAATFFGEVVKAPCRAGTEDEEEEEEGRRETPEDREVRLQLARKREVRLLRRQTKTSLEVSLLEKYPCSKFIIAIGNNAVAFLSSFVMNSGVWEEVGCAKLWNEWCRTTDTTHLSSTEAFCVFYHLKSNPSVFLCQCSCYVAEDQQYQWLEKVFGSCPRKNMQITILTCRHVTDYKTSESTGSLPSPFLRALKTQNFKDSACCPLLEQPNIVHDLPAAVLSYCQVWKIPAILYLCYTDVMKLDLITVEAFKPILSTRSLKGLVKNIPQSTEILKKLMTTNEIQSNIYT; chain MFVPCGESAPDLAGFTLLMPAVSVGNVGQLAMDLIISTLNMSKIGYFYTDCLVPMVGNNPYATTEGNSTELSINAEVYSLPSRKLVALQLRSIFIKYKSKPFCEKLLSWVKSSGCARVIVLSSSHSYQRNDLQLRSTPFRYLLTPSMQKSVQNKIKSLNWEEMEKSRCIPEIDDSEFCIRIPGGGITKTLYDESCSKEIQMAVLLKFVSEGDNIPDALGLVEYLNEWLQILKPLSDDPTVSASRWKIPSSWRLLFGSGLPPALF
# B1: CCDC32 66-130 (Mus musculus, UniProt Q8BS39); chain KPWAPLHDSEVYLASLEKKLRRIKGLNEEVTSKDMLRTLAQAKKECWDRFLQEKLASEFFVDGLD
# B2: CFTR 1381-1480 (Homo sapiens, UniProt P13569); sequence looked up; chain YQIIRRTLKQAFADCTVILCEHRIEAMLECQQFLVIEENKVRQYDSIQKLLNERSLFRQAISPSDRVKLFPHRNSSKCKSKPQIAALKEETEEEVQDTRL
# B3: SWC3 (Saccharomyces cerevisiae, UniProt P31376); sequence looked up; chain MPAVLRTRSKESSIEQKPASRTRTRSRRGKRGRDDDDDDDDEESDDAYDEVGNDYDEYASRAKLATNRPFEIVAGLPASVELPNYNSSLTHPQSIKNSGVLYDSLVSSRRTWVQGEMFELYWRRPKKIVSESTPAATESPTSGTIPLIRDKMQKMCDCVMSGGPHTFKVRLFILKNDKIEQKWQDEQELKKKEKELKRKNDAEAKRLRMEERKRQQMQKKIAKEQKLQLQKENKAKQKLEQEALKLKRKEEMKKLKEQNKNKQGSPSSSMHDPRMIMNLNLMAQEDPKLNTLMETVAKGLANNSQLEEFKKFIEIAKKRSLEENPVNKRPSVTTTRPAPPSKAKDVAEDHRLNSITLVKSSKTAATEPEPKKADDENAEKQQSKEAKTTAESTQVDVKKEEEDVKEKGVKSEDTQKKEDNQVVPKRKRRKNAIKEDKDMQLTAFQQKYVQGAEIILEYLEFTHSRYYLPKKSVVEFLEDTDEIIISWIVIHNSKEIEKFKTKKIKAKLKADQKLNKEDAKPGSDVEKEVSFNPLFEADCPTPLYTPMTMKLSGIHKRFNQIIRNSVSPMEEVVKEMEKILQIGTRLSGYNLWYQLDGYDDEALSESLRFELNEWEHAMRSRRHKR
# B4: exbD 43-140 (Serratia marcescens, UniProt V5YUQ0); sequence looked up; chain VDIRVDLPASSAKPQPRPEKPVFLSVKADKQLYVGDQPVNADQLTSVLDQRTQANKETTIFFQADKSVDYETLMSVMDTLRKAGYLKVGLVGMEGAAK
# B5: ND3 1-128 (Yarrowia lipolytica, UniProt Q9B6C7); sequence looked up; chain MNTFIIFIILIPIVGFALLAVNILLAVYKPYNEKLGAFECGLTSFNQTRLAFNAAFILVAILFLPFDLEISTLLPYVMSIYLVSNYGFTIVLLFLLILIIGFVYEINTNALKINKHNKPNTDSLIYKL
# B6: SPP1 R5K (Saccharomyces cerevisiae, UniProt Q03012); chain MSLPQWCPPHSTLKRNPTTGEDVYCICKRPDYGELMVGCDGCDDWFHFTCLHIPEQFKDLVFSFYCPYCQAGITGKNKDAIINGEGSLPKTLWKRKCRISDCYKPCLQDSKYCSEEHGREFVNDIWSRLKTDEDRAVVKKMVEQTGHIDKFKKFGQLDFIDNNIVVKTDDEKEIFDQIVVRDMTLKTLEDDLQEVQEISLPLFKKKLELLEVYLGWLDNVYTEMRKLDDDAASHVECGKEDSKGTAAAAAANSSRSRARKNICGYCSTYERIPCSVEEFVRDFGSNEEATKIHEVCTKWKCNRHLDWVSTNQEQYLQQIDSLESMQERLQHLIQARKKQLNIQYYEEILRRGL
# B7: WRKY46 (Arabidopsis thaliana, UniProt Q9SKD9); sequence looked up; chain MMMEEKLVINELELGKELANRLMNNLKHTSSVDSNKTLISDILRIYQNAIFMLSFNQDKNILKRSLEIDGKDSKNVFKKRKVSEKNTEKVKVFVATEQENGSIDDGHCWRKYGQKEIHGSKNPRAYYRCTHRFTQDCLAVKQVQKSDTDPSLFEVKYLGNHTCNNITSPKTTTNFSVSLTNTNIFEGNRVHVTEQSEDMKPTKSEEVMISLEDLENKKNIFRTFSFSNHEIENGVWKSNLFLGNFVEDLSPATSGSAITSEVLSAPAAVENSETADSYFSSLDNIIDFGQDWLWS
# B8: PUM1 774-1186 (Homo sapiens, UniProt Q14671); chain LGGLTNGSGRYISAAPGAEAKYRSASSASSLFSPSSTLFSSSRLRYGMSDVMPSGRSRLLEDFRNNRYPNLQLREIAGHIMEFSQDQHGSRFIQLKLERATPAERQLVFNEILQAAYQLMVDVFGNYVIQKFFEFGSLEQKLALAERIRGHVLSLALQMYGCRVIQKALEFIPSDQQNEMVRELDGHVLKCVKDQNGNHVVQKCIECVQPQSLQFIIDAFKGQVFALSTHPYGCRVIQRILEHCLPDQTLPILEELHQHTEQLVQDQYGNYVIQHVLEHGRPEDKSKIVAEIRGNVLVLSQHKFASNVVEKCVTHASRTERAVLIDEVCTMNDGPHSALYTMMKDQYANYVVQKMIDVAEPGQRKIVMHKIRPHIATLRKYTYGKHILAKLEKYYMKNGVDLGPICGPPNGII
# B9: WDR77 1-107 (Homo sapiens, UniProt Q9BQA1); sequence looked up; chain MRKETPPPLVPPAAREWNLPPNAPACMERQLEAARYRSDGALLLGASSLSGRCWAGSLWLFKDPCAAPNEGFCSAGVQTEAGVADLTWVGERGILVASDSGAVELWE
# B10: PBXIP1 443-561 (Homo sapiens, UniProt Q96AQ6); chain LENWGQDPGVSANASKAWHQKSHFQNSREWSGKEKWWDGQRDRKAEHWKHKKEESGRERKKNWGGQEDREPAGRWKEGRPRVEESGSKKEGKRQGPKEPPRKSGSFHSSGEKQKQPRWR
# B11: SF3B1 454-1304 K700E (Homo sapiens, UniProt O75533); chain KSVNDQPSGNLPFLKPDDIQYFDKLLVDVDESTLSPEEQKERKIMKLLLKIKNGTPPMRKAALRQITDKAREFGAGPLFNQILPLLMSPTLEDQERHLLVKVIDRILYKLDDLVRPYVHKILVVIEPLLIDEDYYARVEGREIISNLAKAAGLATMISTMRPDIDNMDEYVRNTTARAFAVVASALGIPSLLPFLKAVCKSKKSWQARHTGIKIVQQIAILMGCAILPHLRSLVEIIEHGLVDEQQEVRTISALAIAALAEAATPYGIESFDSVLKPLWKGIRQHRGKGLAAFLKAIGYLIPLMDAEYANYYTREVMLILIREFQSPDEEMKKIVLKVVKQCCGTDGVEANYIKTEILPPFFKHFWQHRMALDRRNYRQLVDTTVELANKVGAAEIISRIVDDLKDEAEQYRKMVMETIEKIMGNLGAADIDHKLEEQLIDGILYAFQEQTTEDSVMLNGFGTVVNALGKRVKPYLPQICGTVLWRLNNKSAKVRQQAADLISRTAVVMKTCQEEKLMGHLGVVLYEYLGEEYPEVLGSILGALKAIVNVIGMHKMTPPIKDLLPRLTPILKNRHEKVQENCIDLVGRIADRGAEYVSAREWMRICFELLELLKAHKKAIRRATVNTFGYIAKAIGPHDVLATLLNNLKVQERQNRVCTTVAIAIVAETCSPFTVLPALMNEYRVPELNVQNGVLKSLSFLFEYIGEMGKDYIYAVTPLLEDALMDRDLVHRQTASAVVQHMSLGVYGFGCEDSLNHLLNYVWPNVFETSPHVIQAVMGALEGLRVAIGPCRMLQYCLQGLFHPARKVRDVYWKIYNSIYIGSQDALIAHYPRIYNDDKNTYIRYELDYIL
# B12: HY5 (Arabidopsis thaliana, UniProt O24646); sequence looked up; chain MQEQATSSLAASSLPSSSERSSSSAPHLEIKEGIESDEEIRRVPEFGGEAVGKETSGRESGSATGQERTQATVGESQRKRGRTPAEKENKRLKRLLRNRVSAQQARERKKAYLSELENRVKDLENKNSELEERLSTLQNENQMLRHILKNTTGNKRGGGGGSNADASL
# B13: PUM1 701-1186 (Homo sapiens, UniProt Q14671); sequence looked up; chain TGSGSRRDSLTGSSDLYKRTSSSLTPIGHSFYNGLSFSSSPGPVGMPLPSQGPGHSQTPPPSLSSHGSSSSLNLGGLTNGSGRYISAAPGAEAKYRSASSASSLFSPSSTLFSSSRLRYGMSDVMPSGRSRLLEDFRNNRYPNLQLREIAGHIMEFSQDQHGSRFIQLKLERATPAERQLVFNEILQAAYQLMVDVFGNYVIQKFFEFGSLEQKLALAERIRGHVLSLALQMYGCRVIQKALEFIPSDQQNEMVRELDGHVLKCVKDQNGNHVVQKCIECVQPQSLQFIIDAFKGQVFALSTHPYGCRVIQRILEHCLPDQTLPILEELHQHTEQLVQDQYGNYVIQHVLEHGRPEDKSKIVAEIRGNVLVLSQHKFASNVVEKCVTHASRTERAVLIDEVCTMNDGPHSALYTMMKDQYANYVVQKMIDVAEPGQRKIVMHKIRPHIATLRKYTYGKHILAKLEKYYMKNGVDLGPICGPPNGII
# B14: HCK 78-138 (Homo sapiens, UniProt P08631); chain SEDIIVVALYDYEAIHHEDLSFQKGDQMVVLEESGEWWKARSLATRKEGYIPSNYVARVDS
# UniProt P27986, sequence (whole entry, looked up): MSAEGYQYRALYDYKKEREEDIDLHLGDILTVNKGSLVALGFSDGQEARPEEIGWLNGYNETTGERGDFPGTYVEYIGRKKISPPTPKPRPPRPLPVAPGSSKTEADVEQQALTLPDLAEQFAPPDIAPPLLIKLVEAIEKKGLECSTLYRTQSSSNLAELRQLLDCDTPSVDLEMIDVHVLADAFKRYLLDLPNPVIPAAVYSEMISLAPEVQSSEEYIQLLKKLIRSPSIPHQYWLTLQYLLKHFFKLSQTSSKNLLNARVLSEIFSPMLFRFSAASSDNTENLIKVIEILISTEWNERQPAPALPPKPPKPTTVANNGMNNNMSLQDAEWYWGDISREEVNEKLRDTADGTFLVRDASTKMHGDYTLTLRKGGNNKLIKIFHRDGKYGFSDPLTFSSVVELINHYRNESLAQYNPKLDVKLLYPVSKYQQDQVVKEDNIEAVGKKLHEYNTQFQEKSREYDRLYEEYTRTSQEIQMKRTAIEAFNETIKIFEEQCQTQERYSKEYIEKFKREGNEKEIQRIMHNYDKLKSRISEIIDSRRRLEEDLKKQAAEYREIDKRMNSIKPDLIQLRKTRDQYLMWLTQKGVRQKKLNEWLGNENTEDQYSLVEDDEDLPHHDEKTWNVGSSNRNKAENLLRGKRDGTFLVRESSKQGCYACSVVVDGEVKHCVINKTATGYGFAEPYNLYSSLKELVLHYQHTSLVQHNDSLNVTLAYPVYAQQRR
# UniProt O14744, sequence (whole entry, looked up): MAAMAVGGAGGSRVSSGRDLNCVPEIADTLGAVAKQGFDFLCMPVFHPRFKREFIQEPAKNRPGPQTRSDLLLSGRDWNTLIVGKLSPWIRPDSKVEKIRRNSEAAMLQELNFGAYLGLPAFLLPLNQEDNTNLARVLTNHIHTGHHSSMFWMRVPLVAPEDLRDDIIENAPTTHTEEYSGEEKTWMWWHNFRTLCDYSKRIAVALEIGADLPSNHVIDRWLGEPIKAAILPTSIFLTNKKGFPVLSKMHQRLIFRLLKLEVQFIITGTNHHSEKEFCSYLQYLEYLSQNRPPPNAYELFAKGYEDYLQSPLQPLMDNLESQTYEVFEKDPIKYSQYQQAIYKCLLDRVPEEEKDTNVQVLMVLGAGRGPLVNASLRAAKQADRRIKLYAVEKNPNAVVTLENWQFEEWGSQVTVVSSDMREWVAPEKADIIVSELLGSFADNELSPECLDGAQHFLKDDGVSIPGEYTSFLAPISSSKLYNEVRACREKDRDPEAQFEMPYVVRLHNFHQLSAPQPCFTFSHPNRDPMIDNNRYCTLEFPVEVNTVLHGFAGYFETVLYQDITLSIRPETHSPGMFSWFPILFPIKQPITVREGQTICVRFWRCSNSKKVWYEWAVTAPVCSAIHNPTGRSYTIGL
# UniProt Q39204, sequence (whole entry, looked up): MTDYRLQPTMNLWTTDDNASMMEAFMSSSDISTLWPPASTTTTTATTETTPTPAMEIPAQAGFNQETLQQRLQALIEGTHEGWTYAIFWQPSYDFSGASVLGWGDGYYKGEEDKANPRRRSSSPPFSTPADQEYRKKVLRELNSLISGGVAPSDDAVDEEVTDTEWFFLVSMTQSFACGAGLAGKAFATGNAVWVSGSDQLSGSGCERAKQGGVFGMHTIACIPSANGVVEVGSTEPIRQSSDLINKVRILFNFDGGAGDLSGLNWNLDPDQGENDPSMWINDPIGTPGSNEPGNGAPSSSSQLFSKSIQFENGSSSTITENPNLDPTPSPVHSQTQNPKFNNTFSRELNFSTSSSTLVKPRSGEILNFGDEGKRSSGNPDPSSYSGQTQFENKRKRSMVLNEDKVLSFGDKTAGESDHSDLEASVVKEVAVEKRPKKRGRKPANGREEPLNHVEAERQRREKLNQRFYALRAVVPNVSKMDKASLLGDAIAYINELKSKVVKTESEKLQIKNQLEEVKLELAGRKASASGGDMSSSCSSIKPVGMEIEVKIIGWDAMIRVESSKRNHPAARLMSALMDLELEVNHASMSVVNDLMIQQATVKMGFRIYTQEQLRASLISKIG
# UniProt Q8L6Y1, sequence (whole entry, looked up): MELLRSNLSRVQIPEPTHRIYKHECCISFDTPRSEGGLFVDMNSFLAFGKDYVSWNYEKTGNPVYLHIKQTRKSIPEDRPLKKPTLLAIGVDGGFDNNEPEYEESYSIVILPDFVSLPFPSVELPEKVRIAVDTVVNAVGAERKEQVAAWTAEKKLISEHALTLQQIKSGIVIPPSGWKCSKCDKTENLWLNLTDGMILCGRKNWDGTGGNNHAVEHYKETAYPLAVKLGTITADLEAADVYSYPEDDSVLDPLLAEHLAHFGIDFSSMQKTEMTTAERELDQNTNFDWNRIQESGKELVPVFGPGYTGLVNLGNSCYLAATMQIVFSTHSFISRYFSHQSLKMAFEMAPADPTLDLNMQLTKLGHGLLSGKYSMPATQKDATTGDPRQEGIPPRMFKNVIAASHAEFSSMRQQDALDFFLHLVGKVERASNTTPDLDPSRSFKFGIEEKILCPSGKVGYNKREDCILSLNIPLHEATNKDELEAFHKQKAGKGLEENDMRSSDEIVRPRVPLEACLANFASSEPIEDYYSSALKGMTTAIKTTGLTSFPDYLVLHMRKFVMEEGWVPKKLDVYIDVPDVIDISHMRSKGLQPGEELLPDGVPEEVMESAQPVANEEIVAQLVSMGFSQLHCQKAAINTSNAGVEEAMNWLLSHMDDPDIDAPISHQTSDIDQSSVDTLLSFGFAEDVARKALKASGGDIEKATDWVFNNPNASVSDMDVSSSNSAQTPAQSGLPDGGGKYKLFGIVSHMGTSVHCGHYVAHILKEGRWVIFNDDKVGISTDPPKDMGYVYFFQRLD
# UniProt P21651, sequence (whole entry, looked up): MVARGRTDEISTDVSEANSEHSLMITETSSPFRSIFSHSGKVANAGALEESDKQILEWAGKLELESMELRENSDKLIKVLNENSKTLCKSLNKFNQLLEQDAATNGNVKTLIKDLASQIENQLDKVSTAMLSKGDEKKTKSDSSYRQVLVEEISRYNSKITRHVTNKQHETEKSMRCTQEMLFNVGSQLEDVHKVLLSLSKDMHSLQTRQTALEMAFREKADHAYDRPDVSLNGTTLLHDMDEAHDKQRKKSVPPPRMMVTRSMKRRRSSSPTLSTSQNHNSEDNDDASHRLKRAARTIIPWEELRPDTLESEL
# UniProt Q9UPY3, sequence (whole entry, looked up): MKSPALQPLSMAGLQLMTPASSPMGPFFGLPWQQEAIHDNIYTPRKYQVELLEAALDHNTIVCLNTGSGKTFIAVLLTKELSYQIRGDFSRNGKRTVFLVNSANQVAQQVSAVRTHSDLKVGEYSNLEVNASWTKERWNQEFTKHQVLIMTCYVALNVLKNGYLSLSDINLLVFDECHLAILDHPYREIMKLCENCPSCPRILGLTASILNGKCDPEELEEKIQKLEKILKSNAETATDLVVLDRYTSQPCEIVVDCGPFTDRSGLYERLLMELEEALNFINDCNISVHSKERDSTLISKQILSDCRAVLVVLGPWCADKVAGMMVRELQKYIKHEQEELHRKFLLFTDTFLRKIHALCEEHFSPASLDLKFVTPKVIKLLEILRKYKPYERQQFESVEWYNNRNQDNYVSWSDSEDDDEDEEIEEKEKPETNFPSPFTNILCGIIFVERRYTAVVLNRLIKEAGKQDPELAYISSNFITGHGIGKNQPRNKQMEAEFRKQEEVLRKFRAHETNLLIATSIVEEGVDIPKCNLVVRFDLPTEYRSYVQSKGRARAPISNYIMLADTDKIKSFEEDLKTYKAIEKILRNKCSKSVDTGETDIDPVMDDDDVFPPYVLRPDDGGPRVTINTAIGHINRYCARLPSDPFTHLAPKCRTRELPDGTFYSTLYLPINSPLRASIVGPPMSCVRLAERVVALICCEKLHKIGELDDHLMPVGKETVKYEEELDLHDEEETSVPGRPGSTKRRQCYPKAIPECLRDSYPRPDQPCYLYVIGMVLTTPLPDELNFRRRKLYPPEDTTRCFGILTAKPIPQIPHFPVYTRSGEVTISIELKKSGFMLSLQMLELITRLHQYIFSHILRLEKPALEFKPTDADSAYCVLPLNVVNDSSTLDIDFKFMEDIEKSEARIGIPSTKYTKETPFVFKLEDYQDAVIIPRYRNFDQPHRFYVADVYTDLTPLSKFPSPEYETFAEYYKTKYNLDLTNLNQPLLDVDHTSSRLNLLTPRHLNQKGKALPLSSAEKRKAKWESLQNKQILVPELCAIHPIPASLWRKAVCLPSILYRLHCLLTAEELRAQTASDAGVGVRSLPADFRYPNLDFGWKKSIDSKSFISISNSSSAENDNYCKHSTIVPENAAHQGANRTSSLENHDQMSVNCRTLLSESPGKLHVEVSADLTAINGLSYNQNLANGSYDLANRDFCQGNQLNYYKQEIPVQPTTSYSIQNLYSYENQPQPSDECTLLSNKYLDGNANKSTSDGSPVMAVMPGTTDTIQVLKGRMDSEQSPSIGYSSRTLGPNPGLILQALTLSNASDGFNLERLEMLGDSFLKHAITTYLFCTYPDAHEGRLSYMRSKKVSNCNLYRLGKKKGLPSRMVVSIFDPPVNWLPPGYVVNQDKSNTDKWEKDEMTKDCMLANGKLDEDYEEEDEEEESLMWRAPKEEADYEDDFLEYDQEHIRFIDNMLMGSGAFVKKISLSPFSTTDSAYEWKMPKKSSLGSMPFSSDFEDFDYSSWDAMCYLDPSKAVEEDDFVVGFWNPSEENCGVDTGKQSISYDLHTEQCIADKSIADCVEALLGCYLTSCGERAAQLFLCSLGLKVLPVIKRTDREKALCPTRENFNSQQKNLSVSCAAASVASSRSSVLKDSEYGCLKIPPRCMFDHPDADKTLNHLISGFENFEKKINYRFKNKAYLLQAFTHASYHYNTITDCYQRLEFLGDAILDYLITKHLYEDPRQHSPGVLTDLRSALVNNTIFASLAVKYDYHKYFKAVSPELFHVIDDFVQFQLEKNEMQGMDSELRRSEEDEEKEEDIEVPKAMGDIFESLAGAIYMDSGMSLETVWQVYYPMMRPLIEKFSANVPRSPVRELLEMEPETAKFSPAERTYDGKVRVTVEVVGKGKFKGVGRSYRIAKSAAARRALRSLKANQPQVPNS
Molecule,target or system,assay,system,setting,how to read,quantity,result
B1 (CCDC32 66-130),AP-2 α/σ2 (Mus musculus),pull-down,,,,binding,binds
"PSMA2 (Homo sapiens, UniProt P25787)","T1, PSMG1/PSMG2 heterodimer (Homo sapiens)",cryo-EM,,,,binding,binds
"TARBP2 (Homo sapiens, UniProt Q15633)","DICER1 (Homo sapiens, UniProt Q9UPY3)",SEC,,,,binding,binds
B2 (CFTR 1381-1480),"PTEN 1-351 (Homo sapiens, UniProt P60484)",pull-down,,,,binding,binds
GSGAGKETSF,human MAGI1-3/6 PDZ construct (MBP fusion),automated holdup,"peptide, crude extract","concentration not given, uncorrected, unit not given","relative to: biotin control resin, higher = stronger binding",binding intensity,-0.143
B3 (SWC3),"VPS72 (Saccharomyces cerevisiae, UniProt Q03388)",cryo-EM,,,,binding,binds
"QHWSYGLRPG (GNRH1 mature decapeptide; N-terminal pGlu, C-terminal amide)","GNRHR (Sus scrofa, UniProt P49922)",cryo-EM,peptide,,,binding,binds
B4 (exbD 43-140),"hasB 37-263 (Serratia marcescens, UniProt Q79AD1)",NMR titration,,,,binding,binds
B5 (ND3 1-128),"ND1 1-341 (Yarrowia lipolytica, UniProt Q9B6E8)",cryo-EM,,,,binding,binds
B6 (SPP1 R5K),"REC107 (Saccharomyces cerevisiae, UniProt P21651)",pull-down,,,,binding,binds
B7 (WRKY46),"MYC2 (Arabidopsis thaliana, UniProt Q39204)",pull-down,,,,binding,binds
B8 (PUM1 774-1186),CNOT1/CNOT2/CNOT3 C-terminal NOT module 1833-2361,pull-down,,,,binding,binds
B9 (WDR77 1-107),"PRMT5 (Homo sapiens, UniProt O14744)",co-IP,,in vitro,,binding,binds
GSGAGKETYY,human MAGI1-2/6 PDZ construct (MBP fusion),automated holdup,"peptide, crude extract","concentration not given, corrected by standard peak, unit not given","relative to: biotin control resin, higher = stronger binding",binding intensity,-0.026
B10 (PBXIP1 443-561),"MAPK3 (Homo sapiens, UniProt P27361)",pull-down,,,,binding,binds
B11 (SF3B1 454-1304 K700E),"PHF5A (Homo sapiens, UniProt Q7RTV0)",cryo-EM,,,,binding,binds
B12 (HY5),"UBP14 (Arabidopsis thaliana, UniProt Q8L6Y1)",pull-down,,,,binding,binds
B13 (PUM1 701-1186),CNOT1/CNOT2/CNOT3 NOT module 1833-2361,pull-down,,,,binding,binds
B14 (HCK 78-138),"PIK3R1 80-724 (Homo sapiens, UniProt P27986)",ITC,,,,binding,binds

# A few entries again:
Molecule,target or system,assay,system,setting,how to read,quantity,result
GSGAGKETSF,human MAGI1-3/6 PDZ construct (MBP fusion),automated holdup,"peptide, crude extract","concentration not given, uncorrected, unit not given","relative to: biotin control resin, higher = stronger binding",binding intensity,-0.143
